# Measurements of several laboratories.
# Lines come from different studies, so protocols differ. Numbers after ± are the reported error.
# CHRM2: Muscarinic acetylcholine receptor M2 (CHRM2, Homo sapiens, UniProt P08172)
# UniProt P08172, sequence (whole entry, looked up): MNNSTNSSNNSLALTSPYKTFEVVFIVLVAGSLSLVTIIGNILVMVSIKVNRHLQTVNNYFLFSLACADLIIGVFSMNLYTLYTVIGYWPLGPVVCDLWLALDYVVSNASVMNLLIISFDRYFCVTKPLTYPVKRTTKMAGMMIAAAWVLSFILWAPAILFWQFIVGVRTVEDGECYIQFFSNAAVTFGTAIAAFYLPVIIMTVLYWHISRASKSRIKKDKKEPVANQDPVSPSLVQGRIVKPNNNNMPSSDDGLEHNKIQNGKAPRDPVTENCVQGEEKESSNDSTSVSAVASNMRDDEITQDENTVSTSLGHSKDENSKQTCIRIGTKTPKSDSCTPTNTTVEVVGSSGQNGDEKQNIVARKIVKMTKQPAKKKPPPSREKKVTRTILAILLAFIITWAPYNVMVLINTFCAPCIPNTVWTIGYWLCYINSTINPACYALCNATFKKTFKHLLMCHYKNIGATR
# MYC: Myc proto-oncogene protein (MYC, Homo sapiens, UniProt P01106)
# UniProt P01106, sequence (whole entry, looked up): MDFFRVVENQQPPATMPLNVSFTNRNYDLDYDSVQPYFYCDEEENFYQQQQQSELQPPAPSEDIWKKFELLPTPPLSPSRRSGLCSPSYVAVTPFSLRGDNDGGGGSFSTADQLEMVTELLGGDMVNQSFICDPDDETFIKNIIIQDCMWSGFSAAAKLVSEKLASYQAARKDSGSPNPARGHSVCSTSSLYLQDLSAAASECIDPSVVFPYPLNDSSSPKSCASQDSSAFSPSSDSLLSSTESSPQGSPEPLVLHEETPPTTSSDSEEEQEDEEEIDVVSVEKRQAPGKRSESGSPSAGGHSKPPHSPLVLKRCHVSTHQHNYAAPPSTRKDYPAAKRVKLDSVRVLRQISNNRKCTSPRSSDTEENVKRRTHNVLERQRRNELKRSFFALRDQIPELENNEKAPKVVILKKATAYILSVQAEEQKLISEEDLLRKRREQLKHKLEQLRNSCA
# UniProt P18206, sequence (whole entry, looked up): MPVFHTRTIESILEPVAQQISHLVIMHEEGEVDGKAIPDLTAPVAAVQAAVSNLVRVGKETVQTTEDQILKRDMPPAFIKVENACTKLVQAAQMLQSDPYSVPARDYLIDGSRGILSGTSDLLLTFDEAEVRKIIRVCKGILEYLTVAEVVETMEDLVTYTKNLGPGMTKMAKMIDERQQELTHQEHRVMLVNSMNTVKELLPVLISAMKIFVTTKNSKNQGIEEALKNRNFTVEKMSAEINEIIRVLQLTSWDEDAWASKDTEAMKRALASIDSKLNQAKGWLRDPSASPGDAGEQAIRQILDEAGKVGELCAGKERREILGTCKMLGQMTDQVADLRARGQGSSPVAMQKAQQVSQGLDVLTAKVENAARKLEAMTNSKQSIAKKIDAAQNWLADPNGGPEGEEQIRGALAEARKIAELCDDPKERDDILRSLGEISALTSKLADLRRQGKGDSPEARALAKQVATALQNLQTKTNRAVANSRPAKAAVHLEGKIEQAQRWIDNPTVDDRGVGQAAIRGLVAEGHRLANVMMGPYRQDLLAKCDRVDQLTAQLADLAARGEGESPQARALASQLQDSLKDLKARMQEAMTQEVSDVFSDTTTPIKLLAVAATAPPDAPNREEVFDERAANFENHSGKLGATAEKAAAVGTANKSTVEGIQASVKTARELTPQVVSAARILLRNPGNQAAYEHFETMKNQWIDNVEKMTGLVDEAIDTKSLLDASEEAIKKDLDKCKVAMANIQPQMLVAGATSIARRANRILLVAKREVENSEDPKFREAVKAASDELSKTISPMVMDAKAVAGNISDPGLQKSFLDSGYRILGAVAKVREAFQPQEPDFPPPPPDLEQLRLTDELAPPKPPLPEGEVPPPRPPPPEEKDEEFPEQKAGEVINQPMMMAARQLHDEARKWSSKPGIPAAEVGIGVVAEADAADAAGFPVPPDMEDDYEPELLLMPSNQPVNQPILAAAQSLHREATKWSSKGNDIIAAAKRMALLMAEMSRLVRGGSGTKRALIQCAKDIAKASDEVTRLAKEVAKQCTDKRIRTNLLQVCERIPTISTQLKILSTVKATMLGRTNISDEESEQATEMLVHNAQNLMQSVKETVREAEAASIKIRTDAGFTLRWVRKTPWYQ
# UniProt P35414, sequence (whole entry, looked up): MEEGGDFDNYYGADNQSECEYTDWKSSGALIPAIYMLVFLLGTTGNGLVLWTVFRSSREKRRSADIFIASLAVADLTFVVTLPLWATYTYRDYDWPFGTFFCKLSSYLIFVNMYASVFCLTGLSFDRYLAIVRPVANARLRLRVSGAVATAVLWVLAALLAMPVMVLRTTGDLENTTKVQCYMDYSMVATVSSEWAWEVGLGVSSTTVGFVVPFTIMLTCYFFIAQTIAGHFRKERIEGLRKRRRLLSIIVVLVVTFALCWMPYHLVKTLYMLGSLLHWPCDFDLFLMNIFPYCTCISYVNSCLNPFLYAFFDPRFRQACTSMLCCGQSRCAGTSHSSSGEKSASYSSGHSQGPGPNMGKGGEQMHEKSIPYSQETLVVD
# UniProt Q9NSD7, sequence (whole entry, looked up): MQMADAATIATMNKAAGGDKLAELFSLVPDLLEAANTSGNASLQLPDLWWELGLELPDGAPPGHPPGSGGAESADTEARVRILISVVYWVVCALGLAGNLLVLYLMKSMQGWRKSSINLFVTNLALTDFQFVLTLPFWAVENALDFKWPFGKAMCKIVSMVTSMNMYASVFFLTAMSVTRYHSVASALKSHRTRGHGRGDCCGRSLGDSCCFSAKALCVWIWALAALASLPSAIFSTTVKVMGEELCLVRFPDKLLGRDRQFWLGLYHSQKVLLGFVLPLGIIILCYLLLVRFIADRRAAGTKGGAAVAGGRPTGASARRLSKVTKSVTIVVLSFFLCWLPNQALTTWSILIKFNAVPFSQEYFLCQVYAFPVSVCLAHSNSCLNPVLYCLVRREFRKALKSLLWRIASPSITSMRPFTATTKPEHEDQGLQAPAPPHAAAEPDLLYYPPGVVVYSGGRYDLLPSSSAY
# UniProt Q9Z282, sequence (whole entry, looked up): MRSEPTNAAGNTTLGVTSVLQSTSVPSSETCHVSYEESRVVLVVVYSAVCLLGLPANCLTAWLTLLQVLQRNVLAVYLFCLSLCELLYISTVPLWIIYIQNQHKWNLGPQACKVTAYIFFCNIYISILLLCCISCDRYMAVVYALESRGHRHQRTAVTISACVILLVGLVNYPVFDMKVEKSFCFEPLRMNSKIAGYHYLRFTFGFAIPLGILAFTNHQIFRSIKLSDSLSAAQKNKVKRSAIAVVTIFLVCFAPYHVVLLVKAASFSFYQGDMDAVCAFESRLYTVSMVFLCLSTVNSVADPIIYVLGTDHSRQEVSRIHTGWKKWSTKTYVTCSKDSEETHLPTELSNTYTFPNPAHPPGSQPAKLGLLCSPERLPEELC
# UniProt Q96SW2, sequence (whole entry, looked up): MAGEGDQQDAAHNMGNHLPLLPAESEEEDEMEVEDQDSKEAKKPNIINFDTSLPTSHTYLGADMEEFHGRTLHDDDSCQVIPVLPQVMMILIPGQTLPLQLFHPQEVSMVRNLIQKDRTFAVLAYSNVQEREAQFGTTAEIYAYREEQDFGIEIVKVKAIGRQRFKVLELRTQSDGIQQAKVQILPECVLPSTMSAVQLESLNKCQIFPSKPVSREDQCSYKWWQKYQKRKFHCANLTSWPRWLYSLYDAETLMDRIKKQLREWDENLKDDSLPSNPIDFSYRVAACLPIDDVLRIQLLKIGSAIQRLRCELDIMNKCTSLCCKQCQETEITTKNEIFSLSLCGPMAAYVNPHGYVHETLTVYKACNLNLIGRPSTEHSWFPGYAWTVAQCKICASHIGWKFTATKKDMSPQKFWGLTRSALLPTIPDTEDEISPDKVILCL
# UniProt P33032, sequence (whole entry, looked up): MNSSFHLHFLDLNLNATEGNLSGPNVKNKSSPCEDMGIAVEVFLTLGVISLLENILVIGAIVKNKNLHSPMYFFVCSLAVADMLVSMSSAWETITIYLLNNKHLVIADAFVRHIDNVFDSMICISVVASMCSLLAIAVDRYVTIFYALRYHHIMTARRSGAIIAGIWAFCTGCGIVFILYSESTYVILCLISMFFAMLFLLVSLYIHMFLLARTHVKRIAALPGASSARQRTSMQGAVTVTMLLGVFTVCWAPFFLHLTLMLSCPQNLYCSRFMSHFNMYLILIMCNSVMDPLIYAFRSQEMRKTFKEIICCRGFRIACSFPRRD
# UniProt P16050, sequence (whole entry, looked up): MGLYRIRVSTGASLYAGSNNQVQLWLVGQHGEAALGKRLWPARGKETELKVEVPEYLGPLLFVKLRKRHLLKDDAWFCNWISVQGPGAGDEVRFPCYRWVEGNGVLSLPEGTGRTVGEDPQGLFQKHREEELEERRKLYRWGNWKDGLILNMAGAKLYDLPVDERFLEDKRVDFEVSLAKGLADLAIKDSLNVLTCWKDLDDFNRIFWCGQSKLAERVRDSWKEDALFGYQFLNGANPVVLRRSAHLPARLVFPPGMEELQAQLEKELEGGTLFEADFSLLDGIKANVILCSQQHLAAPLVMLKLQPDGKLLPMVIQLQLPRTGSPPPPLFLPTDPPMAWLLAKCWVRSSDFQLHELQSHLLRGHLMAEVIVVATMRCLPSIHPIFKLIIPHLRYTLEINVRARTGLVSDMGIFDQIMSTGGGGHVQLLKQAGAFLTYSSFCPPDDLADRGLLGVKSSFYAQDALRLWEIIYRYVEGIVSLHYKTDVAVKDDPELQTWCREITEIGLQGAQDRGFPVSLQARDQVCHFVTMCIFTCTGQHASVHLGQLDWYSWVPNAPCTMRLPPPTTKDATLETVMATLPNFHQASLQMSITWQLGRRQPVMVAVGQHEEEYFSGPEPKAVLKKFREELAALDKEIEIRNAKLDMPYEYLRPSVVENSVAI
Structure (SMILES),tested on,assay,test system,setting,measurement,value
CN1CCC=C(c2nsnc2OCCCCCN2CCN(CCCCCOc3nsnc3C3=CCCN(C)C3)CC2)C1,CHRM2,"inositol phosphate, antagonist",,,Kb,61.7 nM
CSCC[C@H](NC(=O)[C@@H]1CCCN1C(=O)CNC(=O)[C@H](CCCCN)NC(=O)[C@H](Cc1c[nH]cn1)NC(=O)[C@H](CO)NC(=O)[C@H](CC(C)C)NC(=O)[C@H](CCCNC(=N)N)NC(=O)[C@@H]1CCCN1C(=O)[C@H](CCCNC(=N)N)NC(=O)[C@H](CCC(N)=O)NC(=O)[C@H](CCCNC(=N)N)NC(=O)[C@H](CCCNC(=N)N)NC(=O)[C@H](Cc1ccccc1)NC(=O)[C@H](CCCCN)NC(=O)[C@H](CCCNC(=N)N)NC(=O)[C@H](CCCNC(=N)N)NC(=O)CNC(=O)CNC(=O)[C@H](CCC(N)=O)NC(=O)[C@H](Cc1c[nH]c2ccccc12)NC(=O)[C@@H]1CCCN1C(=O)CNC(=O)[C@@H]1CCCN1C(=O)CNC(=O)[C@H](CC(N)=O)NC(=O)[C@H](CCCNC(=N)N)NC(=O)[C@H](CO)NC(=O)CNC(=O)[C@H](CCCNC(=N)N)NC(=O)[C@@H]1CCCN1C(=O)[C@H](CCC(N)=O)NC(=O)[C@@H](NC(=O)[C@@H](N)CC(C)C)C(C)C)C(=O)N1CCC[C@H]1C(=O)N[C@@H](Cc1ccccc1)C(=O)O,"Apelin receptor (APLNR, Homo sapiens, UniProt P35414)","β-arrestin-1 recruitment, agonist, BRET",HEK293,15 min,EC50,4.54 ± 0.52 nM
COc1ccc2c(=O)c(/C=C/C(=O)N3CCN(C(=S)SCCN(C)C)CC3)coc2c1,tomato spotted wilt virus,"virus inactivation, half-leaf method",Nicotiana glutinosa,tested 31.25 to 500 µg/mL,EC50,179 ± 7.4 µg/mL
N#CCCN1CCN(C(=S)c2ccc(-c3ccc(F)cc3)o2)CC1,"NPR2 (Homo sapiens, UniProt P20594)","cGMP production, positive allosteric modulator, cGMP HTRF",HEK293 expressing human GC-B,together with: CNP at EC30,EC50,4300 nM
CC[C@H](C)[C@@H]1NC(=O)[C@H](Cc2ccccc2)NC(=O)[C@H](CCC(=O)O)NC(=O)[C@H](CCCNC(=N)N)NC(=O)CNC(=O)[C@@H](NC(=O)[C@H](CC(C)C)NC(=O)[C@H](CCCNC(=N)N)NC(=O)[C@@H](NC(=O)CNC(=O)[C@H](Cc2ccc(O)cc2)NC(=O)[C@@H]2CCCN2C(=O)[C@H](C)NC(=O)[C@H](C)NC(=O)[C@@H](N)CCCNC(=N)N)C(C)C)CSSC[C@@H]2NC(=O)[C@@H](NC(=O)[C@H](CO)NC(=O)[C@H](CO)NC(=O)[C@H](CO)NC(=O)[C@H](CC(C)C)NC(=O)CNC(=O)[C@H](C)NC(=O)[C@H](CC(C)C)NC(=O)[C@@H](NC(=O)[C@@H](N)CC(=O)O)C(C)C)CSSC[C@H](NC(=O)CNC(=O)[C@H](Cc3c[nH]c4ccccc34)NC(=O)[C@H](CCCCN)NC2=O)C(=O)N[C@@H](CO)C(=O)N[C@@H](CCCCN)C(=O)N[C@@H](CO)C(=O)N[C@@H](CCC(=O)O)C(=O)N[C@@H]([C@@H](C)CC)C(=O)N[C@@H](CO)C(=O)N[C@@H](CO)C(=O)N[C@@H](CC(C)C)C(=O)N[C@H](C(=O)O)CSSC[C@@H](C(=O)NCC(=O)NCC(=O)N[C@@H](CO)C(=O)N[C@@H](CCCNC(=N)N)C(=O)N[C@@H](Cc2c[nH]c3ccccc23)C(=O)O)NC(=O)[C@H]([C@@H](C)O)NC(=O)[C@H](Cc2ccccc2)NC(=O)[C@H]([C@@H](C)CC)NC(=O)[C@H](C(C)C)NC(=O)[C@H](C)NC(=O)[C@H](CCCNC(=N)N)NC1=O,"RXFP3 (Homo sapiens, UniProt Q9NSD7)","cAMP, agonist",,,EC50,0.52 nM
Cc1cc(Br)cnc1OCCCNc1n[s+]([O-])nc1NCc1ccc[n+]([O-])c1 (stereo not drawn),"Probable G-protein coupled receptor 132 (Gpr132, Mus musculus, UniProt Q9Z282)","β-arrestin recruitment, agonist, PathHunter",cell-based,,EC50,1580 nM
Cc1ncsc1-c1ccc(C2(NC(=O)C3CC(O)CN3C(=O)C(NC(=O)c3ccc(COc4c(-c5c(C)c(F)cc6[nH]ncc56)c(C5CC5)cc5c(N6CC7CC6CN7)nc(OC6CCOCC6)nc45)cc3)C(C)(C)C)CC2)cc1 (stereo not drawn),"GTPase KRas (KRAS, Homo sapiens, UniProt P01116, G12D)","degrader, In-Cell ELISA",AsPC-1,24 h,DC50,682 nM
COc1ccc(CCCN[C@@H]2CCC[C@H]2CN[C@@H]2CCC[C@H]2CNCCCCN[C@H]2CCC[C@@H]2CN)cc1,"KDM1A (Homo sapiens, UniProt O60341)","enzyme activity, inhibitor",,,Ki,2200 nM
CCN(CC)CCSC(=S)N1CCN(C(=O)/C=C/c2coc3cc(F)ccc3c2=O)CC1,tomato spotted wilt virus,"virus inactivation, half-leaf method",Nicotiana glutinosa,tested 31.25 to 500 µg/mL,EC50,253 ± 8.9 µg/mL
CCCCOc1ccc(C(=O)OCC[N+]2(C)CC=CCC2)cc1 (stereo not drawn),CHRM2,"inositol phosphate accumulation, antagonist, Schild analysis",CHO co-expressing G15,together with: carbachol,Kb,1550 nM
Cc1ccc(-n2nnnc2[S+]([O-])Cc2c(F)cccc2Cl)cc1Cl (stereo not drawn),MYC,"degrader, western blot",Ramos,8 h,DC50,~5000 nM
O=C1CCC(c2ccc3c(c2)CN(S(=O)(=O)c2ccc(C4CCCCC4)cc2)C3)C(=O)N1 (stereo not drawn),"VCL/CRBN, with vinculin (Homo sapiens, UniProt P18206+Q96SW2)",degrader,human cells,,DC50,255 nM
COC(=O)c1ccc(N2CCN(C(=O)C3CC3)C(C)C2)cc1 (stereo not drawn),"Methoprene-tolerant protein, with Taiman (Drosophila melanogaster, UniProt O44118)","reporter gene, agonist",HEK293T expressing Drosophila Met/Tai,racemate,EC50,870 nM
CCC(=O)NCc1cc(C(=O)NCCN2CCC(N3CCC(n4c(=O)[nH]c5ccccc54)CC3)CC2)cc(C(=O)NCCN2CCN(CCCCC3CCN(CC(=O)N4c5ccccc5NC(=O)c5ccccc54)CC3)CC2)c1,CHRM2,"inositol phosphate, antagonist",,,Kb,11.7 nM
N=C(N)NCCC[C@H](NC(=O)[C@H](CC(=O)O)NC(=O)[C@@H]1CSCCC(=O)NCC(=O)N[C@@H](Cc2c[nH]cn2)C(=O)N[C@H](Cc2ccccc2)C(=O)N[C@@H](CCCNC(=N)N)C(=O)N[C@@H](Cc2c[nH]c3ccccc23)C(=O)N1)C(=O)N[C@@H](Cc1ccccc1)C(=O)NCC(N)=O,"MC5R (Homo sapiens, UniProt P33032)","cAMP, agonist",,,EC50,2500 nM
CN1CCN(CC(=O)N2N=C3/C(=C/c4ccccc4)CCCC3C2c2ccccc2)CC1 (mixture of isomers),"ALOX15 (Homo sapiens, UniProt P16050)","enzyme activity, activator",,,AC50,> 100000 nM
CCCCOc1ccc(C(=O)OCCN2CC=CCC2)cc1,CHRM2,"inositol phosphate accumulation, antagonist, Schild analysis",CHO co-expressing G15,together with: carbachol,Kb,11700 nM
CCCC(NC(=O)C(C#N)=Cc1nc(Cl)ccc1Cl)c1ccc(OCCN2CCOCC2)cc1 (stereo not drawn),MYC,"degrader, western blot",Ramos,8 h,DC50,~5000 nM

# Excerpt of the above:
Structure (SMILES),tested on,assay,test system,setting,measurement,value
CSCC[C@H](NC(=O)[C@@H]1CCCN1C(=O)CNC(=O)[C@H](CCCCN)NC(=O)[C@H](Cc1c[nH]cn1)NC(=O)[C@H](CO)NC(=O)[C@H](CC(C)C)NC(=O)[C@H](CCCNC(=N)N)NC(=O)[C@@H]1CCCN1C(=O)[C@H](CCCNC(=N)N)NC(=O)[C@H](CCC(N)=O)NC(=O)[C@H](CCCNC(=N)N)NC(=O)[C@H](CCCNC(=N)N)NC(=O)[C@H](Cc1ccccc1)NC(=O)[C@H](CCCCN)NC(=O)[C@H](CCCNC(=N)N)NC(=O)[C@H](CCCNC(=N)N)NC(=O)CNC(=O)CNC(=O)[C@H](CCC(N)=O)NC(=O)[C@H](Cc1c[nH]c2ccccc12)NC(=O)[C@@H]1CCCN1C(=O)CNC(=O)[C@@H]1CCCN1C(=O)CNC(=O)[C@H](CC(N)=O)NC(=O)[C@H](CCCNC(=N)N)NC(=O)[C@H](CO)NC(=O)CNC(=O)[C@H](CCCNC(=N)N)NC(=O)[C@@H]1CCCN1C(=O)[C@H](CCC(N)=O)NC(=O)[C@@H](NC(=O)[C@@H](N)CC(C)C)C(C)C)C(=O)N1CCC[C@H]1C(=O)N[C@@H](Cc1ccccc1)C(=O)O,"Apelin receptor (APLNR, Homo sapiens, UniProt P35414)","β-arrestin-1 recruitment, agonist, BRET",HEK293,15 min,EC50,4.54 ± 0.52 nM
